Values quoted from earlier work, collected from citations in different studies.
Protocols differ between the studies behind these lines. Numbers after ± are the reported error. In brackets after ≈: the same amount, converted by molar mass.
Chain of UniProt Q9BQI3 (whole entry, looked up): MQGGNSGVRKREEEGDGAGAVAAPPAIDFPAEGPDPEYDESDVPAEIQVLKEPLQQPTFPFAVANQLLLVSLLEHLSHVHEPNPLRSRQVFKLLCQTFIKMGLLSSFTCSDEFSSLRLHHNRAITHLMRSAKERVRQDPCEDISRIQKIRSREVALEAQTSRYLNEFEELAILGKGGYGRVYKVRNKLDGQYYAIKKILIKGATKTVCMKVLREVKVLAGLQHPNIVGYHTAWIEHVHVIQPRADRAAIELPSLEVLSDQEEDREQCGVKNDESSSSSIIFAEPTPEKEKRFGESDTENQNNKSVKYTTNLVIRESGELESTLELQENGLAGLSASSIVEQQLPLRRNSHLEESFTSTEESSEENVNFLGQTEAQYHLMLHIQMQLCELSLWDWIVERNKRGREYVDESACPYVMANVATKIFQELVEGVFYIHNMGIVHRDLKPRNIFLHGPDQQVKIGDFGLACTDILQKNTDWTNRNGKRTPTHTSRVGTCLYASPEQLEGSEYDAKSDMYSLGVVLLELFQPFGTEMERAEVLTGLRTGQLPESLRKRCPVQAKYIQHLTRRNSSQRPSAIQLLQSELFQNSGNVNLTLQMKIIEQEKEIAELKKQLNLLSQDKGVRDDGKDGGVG

FC(F)(F)c1ccc(Nc2nc(NCCN3CCOCC3)nc3sc(Nc4c(Cl)cccc4Cl)nc23)cc1  IC50 (TRPV1; calcium flux, antagonist; HEK293; together with: capsaicin): 0.039 µM
Nc1cc(C(F)(F)F)c(-c2nc(N3CCOCC3)nc(N3CCOCC3)n2)cn1  remaining activity (Eukaryotic translation initiation factor 2-alpha kinase 1 (EIF2AK1, Homo sapiens, UniProt Q9BQI3); enzyme activity; 10 µM; reference: untreated): 100%
COC(=O)c1cn(C)c2ccc(-c3cccnc3)cc12  IC50 (NR4A2 (Nurr1); inverse agonist, cellular): 3.8 µM
C=CCn1c(=O)c2cnc(Nc3ccc(N4CCN(C)CC4)cc3)nc2n1-c1ccc2c(n1)[C@@](O)(CC)CC2  IC50 (WEE1 kinase): 0.0038 µM
CN(C)CCC=C1c2ccccc2CCc2ccccc21  IC50 (Kv7.2/7.3 channel; inhibitor): 10 µM
NCCCCC(=O)O  IC50 (taurine transporter TauT; literature value): 1420 µM
CNC(C)C1CCC(N)C(OC2C(N)CC(N)C(OC3OCC(C)(O)C(NC)C3O)C2O)O1 (stereo not drawn)  MIC (Enterobacter cloacae; clinical isolate RKI-No_37/14): 4 µg/mL (≈ 8.38 µM)
O=C(Nc1cccc2cnccc12)NC1CCc2c(Cl)cccc2C1Cc1ccccc1 (stereo not drawn)  IC50 (TRPV1; calcium flux, antagonist; HEK293; together with: capsaicin): 0.016 µM
O=C(O)/C=C/c1ccc(O)c(O)c1  IC50 (xanthine oxidase; inhibitor): 204 ± 1.2 µM
CC(C)(C)CCc1cc(C(F)(F)F)ccc1CNC(=O)Nc1cccc2[nH]ncc12  IC50 (TRPV1; calcium flux, antagonist; HEK293; together with: capsaicin): 0.0043 µM
OB(O)c1cc2ccccc2s1  IC50 (Escherichia coli AmpC β-lactamase; enzyme activity, inhibitor): 0.027 µM
CN1CCN(c2ccc3nc(-c4c(N)c5c(F)cccc5[nH]c4=O)[nH]c3c2)CC1  IC50 (c-Met; inhibitor): > 3 µM
CCC(C)(C)c1ccc(CCC(=O)Nc2cccc3cnccc23)cc1  IC50 (TRPV1; calcium flux, antagonist; HEK293; together with: capsaicin): 0.013 µM
CC1(C)S[C@@H]2[C@H](NC(=O)[C@H](N)c3ccccc3)C(=O)N2[C@H]1C(=O)O  MIC (Enterobacter cloacae; clinical isolate RKI-No_361/13): > 16 µg/mL
CC(C)CN1CCN(c2nc3c(c(Nc4ccc(C(F)(F)F)cc4)n2)CCN(c2ncccc2C(F)(F)F)CC3)CC1  IC50 (TRPV1; calcium flux, antagonist; HEK293; together with: capsaicin): 0.011 µM
C[C@H](NC(=O)[C@H](CC(=O)NCC(C)(C)C)NC(=O)C(=O)c1c[nH]c2ccccc12)C(=O)NCc1ccc(F)cc1F  IC50 (20S proteasome, human erythrocyte; chymotrypsin-like activity, inhibitor): 0.0024 µM
COC(=O)C1=CO[C@@H](O[C@@H]2O[C@H](CO)[C@@H](O)[C@H](O)[C@H]2O)[C@@H]2[C@@H](C)[C@@H](O)C[C@H]12  IC50 (BACE1; enzyme activity, non-competitive inhibitor): 48 µM
O=C(Nc1cccc2cnccc12)NC1CCc2cc(Br)ccc2C1Cc1ccccc1 (stereo not drawn)  IC50 (TRPV1; calcium flux, antagonist; HEK293; together with: capsaicin): 0.017 µM
N[C@@H](CCC(=O)O)C(=O)O  IC50 (kainate glutamate receptor; binding; historical reference value): 0.24 µM
CC(C)(C)c1ccc(CCNC(=O)Nc2cccc3cnccc23)cc1  IC50 (TRPV1; calcium flux, antagonist; HEK293; together with: capsaicin): 0.003 µM
COc1cc2ccc(=O)oc2cc1O[C@@H]1O[C@H](CO[C@@H]2OC[C@](O)(CO)[C@H]2O)[C@@H](O)[C@H](O)[C@H]1O  IC50 (carbonic anhydrase IX): ~0.09 µM
COC1COCCC1NC1CC2OCCC2(C(=O)N2CCc3ncc(C(F)(F)F)cc3C2)C1 (stereo not drawn)  IC50 (CCR2; 3D-QSAR training set): 0.093 µM
COc1cc(N2CCC3(CCN(C)CC3)CC2)ccc1Nc1ncc(Cl)c(Nc2ccccc2P(C)(C)=O)n1  IC50 (ALK C1156Y): 0.009 µM
CCOP(=O)(OCC)C(=Cc1cc(C(C)(C)C)c(O)c(C(C)(C)C)c1)P(=O)(OCC)OCC  IC50 (pregnane X receptor, human; binding): 0.167 µM
CCS(=O)(=O)Nc1ccc(Oc2ccc(F)cc2F)c(-c2cn(C)c(=O)c3[nH]ccc23)c1  IC50 (BET bromodomains; inhibitor): 0.0015 µM
CCOc1c([C@H](C)n2nc(C)c3c(N)ncnc32)cc(Cl)c(F)c1[C@@H]1CNC(=O)C1  IC50 (PI3Kdelta): 0.001 µM
CNCCCN1c2ccccc2CCc2ccccc21  IC50 (sigma-2 receptor; literature value): 11 µM

Excerpt of the above:
COc1cc2ccc(=O)oc2cc1O[C@@H]1O[C@H](CO[C@@H]2OC[C@](O)(CO)[C@H]2O)[C@@H](O)[C@H](O)[C@H]1O  IC50 (carbonic anhydrase IX): ~0.09 µM
COC1COCCC1NC1CC2OCCC2(C(=O)N2CCc3ncc(C(F)(F)F)cc3C2)C1 (stereo not drawn)  IC50 (CCR2; 3D-QSAR training set): 0.093 µM
COc1cc(N2CCC3(CCN(C)CC3)CC2)ccc1Nc1ncc(Cl)c(Nc2ccccc2P(C)(C)=O)n1  IC50 (ALK C1156Y): 0.009 µM
